Experimental data from different studies.
Every numbered part comes from another study and shows a few of its results, in no order.

Series 1
Target: RNA binding protein fox-1 homolog 2, RRM domain, GST-SBP tag (RBFOX2, Homo sapiens, UniProt O43251-10, residues 100-194)
Method: RNA Bind-n-Seq
Molecule type: RNA
Medium: in vitro
Tested at: 365 nM
Notes: natural RNA segment, single round, ends assumed
Reference: no-protein control
Reading: higher = stronger binding
Measurement: RBNS enrichment (R)
Shared flanks, not repeated: GGGAGUUCUACAGUCCGACGAUC … UGGAAUUCUCGGGUGCCAA
Construct (chain): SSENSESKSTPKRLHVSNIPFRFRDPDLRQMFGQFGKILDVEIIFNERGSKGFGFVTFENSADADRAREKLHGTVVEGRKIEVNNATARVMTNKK
AGGUCUGCUGUGGGCAAGUAUAGCCUAACCCUAGUCUUGUAAAAUAAGCCAGAAAGGGUUACUGAGCCACCUUAAGCUAGUACCUAUAUAGUAGGCAAAAAGUACAGAAA: 0.31
CGAGAAGAACUUGCCCCUGUUCUUACCUAGCUUCUUUGAGUCAGUCAGUGUGCAGAGCUCCUUUCUGGCCACACCUCUGUGAACCCCUAUAUUUUCUGGGACUGGAAGGA: 0.834
CCUGCCAUUGGCGGCUCUGUGUGUUAAUAGGCUAGGGAGAGAGGGGUGCUGUCUGCCACUUGCUCCCUGCCAACUUUCUGGAGAGGUGCCAAACUUGGUGUGGCCAGGAA: 0.263
UUUUUAUAUAUACUUUUACCACUGUCACUGAAACAUCUGCCGAGAGCCAGCUAGGGCAGGAGUUGGGGAAAGACGCGCAGAAAGGCAAGCCCGAGUCAGGGCACUUGUUA: 0.776
AUGGCAGCCUUGGCACAAUGCCUGGGUGUCCUCAUCCUUGCUUUACUCUGGAAAGUGUGGGGAUGGAGAGGAUGGUGCAUUUCCAGUGCUUCCUUACCUGUCAAUAACAA: 0.246
AAUGGCUAACUGAUGAAUUAGAAGCCAUCUGACAGCAGGCCACUAGUGACAGUUUCUUUUGUGUUCCUAUGGAAACAUUUUAUACUGUACAUGCUAUGCUGAAGACAUUC: 0.217
UGUGUUGAUGUUAAAGUCAAAGGCUGCAGUAUGUCUAUAUUCUUGCUGUACUCAUUGGUAGUUUCAGUAUAUGUAAUGUGAGUUUAAAUAGUGAAAUUGUAUCUCAUAUU: 0.69
AUUUACAGUGCUUGCUCUGAGCAGCUCAGAAGACAGUAGAGAAUGCGAGAGGACCUUCUGACGGUGAUUGUCCAACAUGCAUCUGGCCCGCUCUGCGGCUCCUCCCACCU: 0.387
AGCUUAUUUCAGUAGUCAAGUUACCUGACAUGAUAAUUAUUUCUGCAGGAUAAUUGAUGUUUUAUGUUCUUUUUUGGACUUUAUCUUCUUGCAAAAAUUUCUACAAAAAU: 0.636
ACUCUCUCAGAGUAAAUGGUGGGAAGGGAUCCCUUUGUAUACUUUUUUAAAUACUACAAAUUAGUGUCAGGCAGUUCCCAGAAAGAGACAAGAAAUCCUAGUGGCCUCCC: 0.335
GCAGUACUAUUAAUGACCUCCCCAGGGCAGGCAUGAGUUGUGUCCUGAGUGGAACAUCUGGCCAUGCAUGGUUGUGAUGGGCCAUUGCUUUCGCUGCUUUAGAGCACCAC: 10.6
GACCGAAUGGCUGGGUUUAGUAAAUAAAACACUAAGCAUGACGGGCUCCCGCCUCUUGCCGCUCUGCUCAGUCUGCUGUGGGAAUCCUUGCGUCCCAGCCCACCUCACCU: 1.07

Series 2
Target: Interferon regulatory factor 7, full length, phosphomimetic (IRF7, Homo sapiens, UniProt Q92985, residues 1-503, S101K/S471D/S472D/S475D/S476D/S477D/S483D/S484D/S487D)
Chain of UniProt Q92985 (whole entry, unmodified, looked up): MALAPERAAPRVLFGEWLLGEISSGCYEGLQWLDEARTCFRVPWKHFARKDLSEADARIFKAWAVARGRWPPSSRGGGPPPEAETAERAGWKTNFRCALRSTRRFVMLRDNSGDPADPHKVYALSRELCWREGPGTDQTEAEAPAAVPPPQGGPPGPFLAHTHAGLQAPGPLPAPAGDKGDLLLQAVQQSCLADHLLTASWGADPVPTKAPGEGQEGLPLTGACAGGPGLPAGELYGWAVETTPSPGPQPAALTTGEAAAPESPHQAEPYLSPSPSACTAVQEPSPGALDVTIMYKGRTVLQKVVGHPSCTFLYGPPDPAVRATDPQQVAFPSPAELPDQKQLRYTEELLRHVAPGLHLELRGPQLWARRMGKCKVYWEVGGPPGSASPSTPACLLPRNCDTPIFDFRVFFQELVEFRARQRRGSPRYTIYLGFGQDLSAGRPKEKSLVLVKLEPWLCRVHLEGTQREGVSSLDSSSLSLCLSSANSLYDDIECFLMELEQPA
Method: protein-binding microarray
Molecule type: double-stranded DNA, one strand shown
Medium: in vitro
Tested at: 250 nM
Notes: 60-bp whole probe
With: salmon DNA 0.4 mg/ml
Reference: random background probes
Reading: higher = stronger binding
Measurement: log fluorescence
Shared flanks, not repeated: GCCTAGCAC … GTCTTGATTCGCTTGACGCTGCTG
TTAGGTTTTGGGACTGGGTTAGTGCTA: 0.395 z-score
TTAGAACTGAGTATCGCTTAGTGCTAG: -0.114 z-score
TTAGAACTGGGGTATCGATTAGTGCTA: 0.366 z-score
CAGGGTTTCACTTTAAATTAGTGCTAG: 8.71 z-score
TCATCTCCCATTCTGAAACTGTGCTAG: 0.942 z-score
GACGAACTCAGTATCGAGACGTGCTAG: 0.102 z-score
GACGAACCGAGTATCGAGACGTGCTAG: 0.695 z-score
GACGGTATAGGGACTGGGGACGTGCTA: -0.446 z-score
GACGAACTGGGACTGGAGACGTGCTAG: -0.453 z-score
TGTACTCTCTCCATGTGTTTGTGCTAG: 0.706 z-score
ACCGCATTCGAATTCAGAATGTGCTAG: 1.3 z-score
TTAGATATCGGGTATCGGTTAGTGCTA: 0.787 z-score
GACGAACTGAGTACCGAGACGTGCTAG: -0.127 z-score
GACTGTATCGACTTTCGGGACGTGCTA: 0.293 z-score
CACAGGCTGCACAGAATGTAGTGCTAG: -0.931 z-score
TTAGGTATCGTACTGGGTTAGTGCTAG: 0.216 z-score
GACGAACTGAGAGTGGAGACGTGCTAG: -0.509 z-score
GACGGTATTGGTATCGGGACGTGCTAG: -0.0896 z-score
ATGCTACTGCATTTTTTTTTGTGCTAG: -0.633 z-score
GACGGTATCGGTATCGGGATGTGCTAG: 1.45 z-score

Series 3
Target: TAR DNA-binding protein 43, full length, His tag (TARDBP, Homo sapiens, UniProt Q13148, residues 1-414)
Method: RNA Bind-n-Seq
Molecule type: RNA
Medium: in vitro
Tested at: 20 nM
Notes: 6-mer, flanks averaged, single round
With: 150 mM KCl
Reference: input library
Reading: higher = stronger binding
Measurement: 6-mer enrichment (R)
GAGUUC: 0.728
CAACCG: 0.683
AAAGAU: 0.591
AAGGUG: 1.39
AAAAUU: 0.65
CAACUC: 0.585
GCCCAU: 0.688
GUCUUC: 0.575
UCCAGC: 0.681
CACAUG: 0.716
UCAAAU: 0.616
GCGUUA: 0.804
UUCAAA: 0.59
CCUAAG: 0.696
AAUAAA: 0.93
ACCACG: 0.748
UGGUAU: 0.853
AGGACU: 0.83

Series 4
Target: Histone acetyltransferase KAT6A, winged helix 2, GST fusion (KAT6A, Homo sapiens, UniProt Q92794, residues 85-181)
Method: protein binding microarray
Molecule type: double-stranded DNA, one strand shown
Medium: in vitro
Tested at: not given
Notes: 8-mer, flanks averaged, mean of 2 arrays, mostly near background
Reference: not given
Reading: higher = stronger binding
Measurement: E-score
Construct (chain): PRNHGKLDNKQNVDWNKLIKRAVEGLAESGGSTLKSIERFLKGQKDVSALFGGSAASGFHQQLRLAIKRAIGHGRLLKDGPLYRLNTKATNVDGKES
ATATTATA: 0.0579
TAATTTAA: 0.145
CATGAAAG: 0.0252
ATATTACG: 0.0611
ACGCAACA: 0.118
GACTGTAC: -0.252
AGCAACAG: 0.0578
CAGGGCAC: 0.143
TATTTACA: -0.136
CGGTATGA: -0.0422
ACAATTTG: -0.0496
CCGACCCG: 0.148
AATGCCAT: 0.0843
CCCAGGAC: -0.113
AGTGTCAT: -0.107
AGAAGGGG: -0.0329
ACATGCGT: -0.12
CCATGCTA: 0.0307
CACGTGTC: -0.253
CTTGACCA: -0.0332
CAACTAGG: 0.0479
GTAGGACA: 0.21
CGAGGGCC: -0.00427
CACACGTG: -0.25
GGGACCGA: 0.202

Series 5
Target: Hepatocyte nuclear factor 3-beta, forkhead domain (FOXA2, Homo sapiens, UniProt Q9Y261, residues 142-269)
Method: protein-binding microarray
Molecule type: double-stranded DNA, one strand shown
Medium: in vitro
Tested at: not given
Notes: k-mer, scored over probes, only values ≥0.25
Reading: higher = stronger binding
Measurement: E-score
Target sequence (chain): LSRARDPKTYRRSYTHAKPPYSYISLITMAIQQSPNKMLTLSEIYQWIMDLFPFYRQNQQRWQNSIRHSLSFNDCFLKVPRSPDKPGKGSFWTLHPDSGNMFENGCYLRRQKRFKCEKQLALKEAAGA
TAATCCAA: 0.3
TTACCAAA: 0.285
ATGGTAAT: 0.271
GGGATACA: 0.253
ACTATACA: 0.292
ATTGACGA: 0.259
AAGTAACA: 0.28
AACTTACA: 0.262
GATAAATA: 0.313
TATTGACA: 0.424
CCATATAC: 0.306
ATAAGCAG: 0.254
TAAACACA: 0.353
CTGTGTAA: 0.261
ATTTATCC: 0.285
TAGTGACA: 0.297
ATTTTACC: 0.258
CAATGCAA: 0.26
AACACACA: 0.352
AGTATTCA: 0.255
AATACTAT: 0.252
CTATTTGC: 0.256
ATACACAG: 0.255
AACTACCA: 0.286
ATATTCAT: 0.328

Series 6
Target: Ras GTPase-activating protein-binding protein 1, full length (G3BP1, Homo sapiens, UniProt Q13283)
Chain of UniProt Q13283 (whole entry, looked up): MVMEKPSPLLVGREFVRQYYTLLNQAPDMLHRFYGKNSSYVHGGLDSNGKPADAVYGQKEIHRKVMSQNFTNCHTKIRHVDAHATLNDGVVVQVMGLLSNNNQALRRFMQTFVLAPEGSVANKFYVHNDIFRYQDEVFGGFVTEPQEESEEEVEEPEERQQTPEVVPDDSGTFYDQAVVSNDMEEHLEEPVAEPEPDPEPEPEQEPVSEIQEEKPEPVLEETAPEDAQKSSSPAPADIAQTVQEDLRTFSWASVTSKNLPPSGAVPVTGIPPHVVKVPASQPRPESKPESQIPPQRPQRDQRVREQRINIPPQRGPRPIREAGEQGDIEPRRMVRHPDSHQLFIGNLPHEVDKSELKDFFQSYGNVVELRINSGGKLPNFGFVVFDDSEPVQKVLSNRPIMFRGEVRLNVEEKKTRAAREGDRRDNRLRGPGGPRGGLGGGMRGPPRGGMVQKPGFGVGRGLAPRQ
Method: RNA Bind-n-Seq
Molecule type: RNA
Medium: in vitro
Tested at: 200 nM
Notes: whole 134-nt RNA, ends assumed
With: 150 mM KCl
Reference: input library
Reading: higher = stronger binding
Measurement: log2 enrichment
Shared flanks, not repeated: GGGAGUUCUACAGUCCGACGAUC … UGGAAUUCUCGGGUGUCAAGG
UAACUUUAGAGGAGGAUCUGAUGGAUAUUGCAGUGGACGUGGAUUUGGGGAUGGCUAUAAUGGGUAUGGAGGAGGACCUGGAGGUGGCAA: 0.436
AAGUCCUGUGCUACACAUCGUAUGUACCGAAUCGGGAAAAAGGGAAAAAGGGUGGGAAAGUAUUAUGUUACGCCGUUCGGAUCUGCACUU: 0.477
CCCAUUCCAAGAUUUGCUGUUGGCAUUGUAAUAGGAAGAAAUGGAGAGAUGAUCAAAAAAAUACAAAAUGAUGCUGGUGUUCGCAUUCAG: -0.184
AGCCGAGCGGGAACGGAACCGACAGCUGGAGCGAGAGAAACGUCGGGAGCACAGUCGGGAGAGGGACAGGGAGAGAGAGAGAGAAAGGGA: 0.474
UGGCCCUGGUGGCAUGCGGGGAGGAAGAGGUGGCCUCAUGGAUCGUGGUGGUCCCGGUGGAAUGUUUAGAGGUGGCCGUGGUGGAGACAG: 0.451
UGGCCCUGGUGGCAUGCGGGGAGGAAGAGGUGGCCUAAUGGAUCGUGGUGGUCCCGGUGGAAUGUUCAGAGGUGGCCGUGGUGGAGACAG: 0.601
GCCUGGCGCUGGCCAACAAUAGCACCCUCACCAUUGGCACCAUCGAUGAGAUCCAGAAGCUGCACAUUCGCACAGUUCCCCUCUAUGAGU: 1.13
UCCUCAAGUCCUGUGCUACACAUCGUAUGUACCGAAUCGGGUGGUGGGGUGGAAAGUAUUAUGUUACGCCGUUCGGAUCUGCACUUCCAG: 0.497
AGUCCUGUGCUACACAUCGUAUGUACCGAAUCGGGUUUUUGGUUUUUGGGUUUUUGGAAAGUAUUAUGUUACGCCGUUCGGAUCUGCACU: -1.21
CAAGUCCUGUGCUACACAUCGUAUGUACCGAAUCGGGAAAAAGGGUUUGGGUGGGAAAGUAUUAUGUUACGCCGUUCGGAUCUGCACUUC: 1
CCUGUGCUACACAUCGUAUGUACCGAAUCGGUUUUUUUGGGUUUUUUUGGGGUUUUUUUGGAAAGUAUUAUGUUACGCCGUUCGGAUCUG: -0.892
ACCAUGCAGGUGGGCAUCUUUAGGAAGUGGGGCAAGGGGGGGAUAGGGAGGGGGGUAACACUUUGGGAACAGGUGGUCCCAGGUCGUUUC: 1.21
UCCUGUGCUACACAUCGUAUGUACCGAAUCGGGUUUUUUGGGGUUUUUUGGUUUUUUGGGAAAGUAUUAUGUUACGCCGUUCGGAUCUGC: -0.337
UGGGAGGUGGAUUUUGUUUAUUUUUUUAGCUCAUUUCCAGGGGUGGGAAUUUUUUUUUAAUAUGUGUCAUGAAUAAAGUUGUUAUUGAAA: 0.0968

Some of these lines once more (series 4):
TATTTACA: -0.136
CGGTATGA: -0.0422
ACAATTTG: -0.0496
CCGACCCG: 0.148
AATGCCAT: 0.0843
CCCAGGAC: -0.113
AGTGTCAT: -0.107
AGAAGGGG: -0.0329
ACATGCGT: -0.12
CCATGCTA: 0.0307
CACGTGTC: -0.253
CTTGACCA: -0.0332
CAACTAGG: 0.0479
GTAGGACA: 0.21
CGAGGGCC: -0.00427
CACACGTG: -0.25
